# Measured values pooled from the literature.
# Each numbered part is a random draw from the data of one study; scales do not carry over between parts. Changes are numbered by the printed parent chain.

# Sample 1 — target: MAFK, bZIP domain (human); method: DHFR protein complementation; matrix: yeast; relative to: wild-type JUN-FOS pair; direction: higher = stronger binding
# Setting: single substitutions, most at no-binding floor
# Parent: JUN, bZIP domain (human); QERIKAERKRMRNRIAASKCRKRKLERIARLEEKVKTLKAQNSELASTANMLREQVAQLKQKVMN; partner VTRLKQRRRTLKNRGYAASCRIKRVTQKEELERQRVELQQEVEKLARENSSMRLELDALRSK
Change,binding fitness
L45A,-1.42 natural log
I28W,-1.58 natural log
S43F,-1.53 natural log
E44T,-1.5 natural log
K36I,-1.43 natural log
L31Q,-1.46 natural log
R30V,-1.38 natural log
M51I,-1.51 natural log
A57W,-1.52 natural log
Q55K,-1.48 natural log
L52F,-1.32 natural log
E32Q,-1.45 natural log

# Sample 2 — method: DHFR PCA, deep sequencing; matrix: yeast; with: (+)-ABA 17 µM; relative to: wild-type fitted maximum; direction: higher = stronger binding
# Target: ABI1, truncated, D143A, DHFR fusion (Arabidopsis thaliana)
# Setting: methotrexate growth selection, single substitutions
# Parent: PYL1, truncated, DHFR fusion (Arabidopsis thaliana); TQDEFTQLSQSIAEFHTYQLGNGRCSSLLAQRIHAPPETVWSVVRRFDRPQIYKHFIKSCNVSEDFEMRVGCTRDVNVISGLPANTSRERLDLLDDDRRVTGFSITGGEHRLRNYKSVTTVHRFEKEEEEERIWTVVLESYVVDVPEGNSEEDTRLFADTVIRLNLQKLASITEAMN
Change,relative binding score
V137A,12.1%
G102I,0.796%
V78G,1.62%
S42H,64.5%
I52M,79.1%
A158F,7.85%
L91P,-20.4%
D153I,-12.1%
A158N,35.4%
H122T,16.6%
F5C,79.4%
L94E,-1.51%
K58A,81%
V118K,83.4%
T106Q,68.2%
E131G,96.7%
I52W,63.4%
V143G,-4.62%
K126D,94.5%

# Sample 3 — method: protein-binding microarray; molecule type: double-stranded DNA, one strand shown; matrix: in vitro; tested at: 940 nM top; setting: 60-bp whole probe; with: salmon DNA 0.4 mg/ml; relative to: random background probes; direction: higher = stronger binding; constant ends, left off below: GCCTAGCAC … GTCTTGATTCGCTTGACGCTGCTG
# Target: Interferon regulatory factor 5, full length, phosphomimetic (IRF5, Homo sapiens, UniProt Q13568-2, residues 1-514, S451D/S453D/S456D/S462D)
Sequence,fitted relative affinity
GCCGATATCAGTCTCGAGACGTGCTAG,1.42 z-score
CGCCCACTCATGCCTCTTAAGGTGCTA,0.698 z-score
TGGCTTTCCTTTATGTCCTGGTGCTAG,0.292 z-score
TTAGGTCTCCTACTGCTTAAGTGCTAG,-0.195 z-score
GACGATATCGTGTTTCGAGACGTGCTA,0.529 z-score
TTAGATTTCGGGACTGGAATAGTGCTA,0.297 z-score
TCAGATGTGTATATGACACTGTGCTAG,-0.365 z-score
CCTCACTTCCTTCTGCCTGTGTGCTAG,1.48 z-score
TGCATCGTAAGCAAAAATGAGTGCTAG,-0.515 z-score
GACGGTTCCGGCTTCGGGACGTGCTAG,0.684 z-score

# Sample 4 — target: CCNF, cyclin fold, Cln2 fusion (human); method: yeast growth competition, sequencing; matrix: yeast; setting: strong parent motif; relative to: not given; direction: higher = stronger binding
# Parent: CDC6 docking peptide (human); TLKGRRLVFDNQL; partner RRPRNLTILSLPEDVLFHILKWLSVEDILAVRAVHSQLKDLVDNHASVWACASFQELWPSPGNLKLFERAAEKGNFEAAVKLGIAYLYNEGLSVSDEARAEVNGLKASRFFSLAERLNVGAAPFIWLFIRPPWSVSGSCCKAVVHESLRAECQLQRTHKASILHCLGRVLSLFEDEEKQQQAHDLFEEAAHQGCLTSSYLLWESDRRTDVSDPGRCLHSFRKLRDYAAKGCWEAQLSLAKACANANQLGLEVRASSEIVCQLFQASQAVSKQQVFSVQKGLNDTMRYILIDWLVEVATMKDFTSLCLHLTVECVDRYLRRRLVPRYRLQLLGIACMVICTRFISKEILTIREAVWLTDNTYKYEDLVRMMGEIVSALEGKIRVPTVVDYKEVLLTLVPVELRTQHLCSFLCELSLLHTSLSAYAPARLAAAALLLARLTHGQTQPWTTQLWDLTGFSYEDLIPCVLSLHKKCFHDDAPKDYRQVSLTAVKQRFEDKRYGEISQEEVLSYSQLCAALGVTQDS
Change,normalised enrichment score
L2S,7.08
T1K,10.8
D10C,8.49
F9T,0.673
R6D,0.641
F9L,6.48
N11P,9.25
L13F,8.46
L13T,8.26
R6V,6.29
L2G,7.34
L13C,8.64

# For quick reference, copied from above (sample 1):
Change,binding fitness
L45A,-1.42 natural log
I28W,-1.58 natural log
S43F,-1.53 natural log
E44T,-1.5 natural log
K36I,-1.43 natural log
L31Q,-1.46 natural log
R30V,-1.38 natural log
M51I,-1.51 natural log
